Measured values pooled from the literature.
Numbered parts are unrelated; each lists some results of a single study. Changes are numbered by the printed parent chain.

Study 1
Target: RNA binding protein fox-1 homolog 2, RRM domain, GST-SBP tag (RBFOX2, Homo sapiens, UniProt O43251-10, residues 100-194)
Method: RNA Bind-n-Seq
Form: RNA
Matrix: in vitro
Tested at: 365 nM
Notes: natural RNA segment, single round, ends assumed
Baseline: no-protein control
Reading: higher = stronger binding
Endpoint: RBNS enrichment (R)
Shared flanks, not repeated: GGGAGUUCUACAGUCCGACGAUC … UGGAAUUCUCGGGUGCCAA
Target sequence (chain): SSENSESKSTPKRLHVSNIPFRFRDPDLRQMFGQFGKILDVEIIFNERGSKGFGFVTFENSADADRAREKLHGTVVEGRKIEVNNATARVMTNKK
Strand = GAGACACUUCAGAAACUUUGCUCAGAAAACAGAUGCUACAGUUUGUGCAGGCAUGCGGUAGGAAAGGUAGAUCACCUCUGGCUACUCCUGAGGCCCUGCUGAGCCAGCAA; value = 0.6
Strand = UAAUGAAAACUACCAUUAGCCAGUCUUUCUUACUGACAAUAAAUUAUUAAUAAAAUACUUGAGCUUUUGCCUCUUUUUCCUUCCCAUUGAUACUCCUGUUCAGGAUUCAG; value = 0.431
Strand = GUGGGCAUGGUGGGCAUCCCAUGCAGCACAACCCAAAUGGACCACCACCACCUUGGAUGCAGCCACCACCACCACCGAUGAACCAGGGCCCCCACCCACCUGGGCACCAU; value = 0.526
Strand = GGUCAUAUCUGCCACAAAGCACUUGGGCCCCCUGCAUUCAGGUGACCACCCCUCGCCUCCCCUUCUCCAGGACUAUGAGCUCUUCGUGGAGGCUGUGGAACAAAACACGC; value = 0.474
Strand = CACCUGCCCCUGCCUCUGAUCCAGAGUGCUGGGGUUACAGGUGACCCCAACCAUAACCAGUUCAUUUUUUUCCUUUUUUUUUUUUGAAAUGCACAUCUACCUCUUCCCUG; value = 0.785
Strand = AGUUAGGGCCUCUGCAGCUUAUGGUGGCUUAAAAUGGAGAGAGCAUCUUGCCUGGCCGAGUGUUUGUGCUAUGUGAGCAUGAGGCUUUAUUUGACUGUGGAAGAAGACAC; value = 1.1
Strand = CAAAAAGAUGAAUUAUCAAUGAUUUGUAAUUAUAUCAGUUGAUUUUUUUUGAAAAGAUGAACCAAAGGAUUUGACUGCUAAUAUUUUAUUCCUUACACUUUUUUUCUGAA; value = 0.892
Strand = GAUAGCCUGGGUGUUGAUAUUCACUUUACCCGCACUCAGACACAGGCGACCUUGAAGCAGUUCUCGGUGUGUAGAGUCCACGUGACAGUCCCCACAGCCUCCCCAGAUAG; value = 0.263
Strand = GCUGAAGGUUUUACAUUACGUUUUCAAUUAAGUUGCCAACGUUUUAACAACUGGAGAAUGGUAUUCCAGGCCCCAAGAAACUUUGCUUAGGAUUGAUUCUGAGAUGACAC; value = 0.361
Strand = CAUUUGUUUGGAAUCGUGCCACUGCUGGUCUGCGCCAGAUGUACCGUCCUUUCCAAUACGAUUUUCUGUUGCACCUUGUAGUGGAUUCUGCAUAUCAUCUUUCCCACCUA; value = 0.31
Strand = UCUUAUUGGUUGAUAUUACCACAUGAAAUAUUGCCAGACCAAGAUACCUAAACUCAUGAUGUCUGUGGUGCUGUAAAAUUUAUACUAAAAUGUGGACUAUUUUGAAAUUA; value = 0.357
Strand = UCAAGGGUAACCAGUGAGGCUAUGAAAUUGCCAGUGAAUUAAGACCAGGGCUAGAGUCAACAGUCCAGAACCCCUAUCCGUAUGAACAGGGGCCCGUUUCUGGUUGAAAU; value = 0.611

Study 2
Target: Interferon regulatory factor 3, full length, phosphomimetic (IRF3, Homo sapiens, UniProt Q14653, residues 1-427, S386D/S396D/S398D/S402D/T404D/S405D)
Method: protein-binding microarray
Form: double-stranded DNA, one strand shown
Matrix: in vitro
Tested at: 2540 nM top
Notes: 60-bp whole probe
Together with: salmon DNA 0.4 mg/ml
Baseline: random background probes
Reading: higher = stronger binding
Endpoint: fitted relative affinity
Shared flanks, not repeated: GCCTAGCAC … GTCTTGATTCGCTTGACGCTGCTG
Target sequence (chain): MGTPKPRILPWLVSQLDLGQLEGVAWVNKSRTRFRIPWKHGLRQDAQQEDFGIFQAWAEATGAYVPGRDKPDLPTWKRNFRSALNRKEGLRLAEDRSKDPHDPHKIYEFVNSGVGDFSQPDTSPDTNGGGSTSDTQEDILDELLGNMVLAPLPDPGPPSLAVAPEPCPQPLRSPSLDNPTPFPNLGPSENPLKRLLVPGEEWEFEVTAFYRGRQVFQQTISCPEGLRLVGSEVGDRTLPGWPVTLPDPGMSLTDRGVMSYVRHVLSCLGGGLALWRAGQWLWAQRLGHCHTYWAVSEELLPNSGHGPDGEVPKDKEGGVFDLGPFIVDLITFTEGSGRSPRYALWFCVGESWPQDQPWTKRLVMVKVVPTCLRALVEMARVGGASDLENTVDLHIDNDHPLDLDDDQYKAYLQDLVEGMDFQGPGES
Strand = TCATTTCTCTATTGCTTACTGTGCTAG; value = 2.5 z-score
Strand = AACGGTTTCCTTTCCCTGACGTGCTAG; value = 10.3 z-score
Strand = TCAGGTTTCGGTATCGGTTAGTGCTAG; value = 8.39 z-score
Strand = TCACATATACACTGTGTATCTGTGCTA; value = 0.513 z-score
Strand = TTAGGTAACCTTATCCTTTAGTGCTAG; value = 1.79 z-score
Strand = GACGGACTGGACACTGGGGACGTGCTA; value = -0.682 z-score
Strand = GACGGTATCCTTTACCTGACGTGCTAG; value = 3.97 z-score
Strand = TCACAACTCGCCTTTTTTACTGTGCTA; value = 1.43 z-score
Strand = TTAGATCTCACTATCGATTAGTGCTAG; value = 0.58 z-score
Strand = TCATATGTGACCTTTTTAACTGTGCTA; value = 2.39 z-score
Strand = TTAGGTATCGGACTGGATTAGTGCTAG; value = 1.27 z-score
Strand = TTAGGACTGGGGACAGGGTTAGTGCTA; value = -0.917 z-score
Strand = TTAGGACTGTGTATCGGTTAGTGCTAG; value = 0.97 z-score
Strand = ATGGCAAAAAAAAAAGATTTGTGCTAG; value = -0.687 z-score
Strand = GTCGGTTTCGGTCTCGGGACGTGCTAG; value = 9.06 z-score
Strand = GACGGTTTAGACTTTCGGGACGTGCTA; value = 0.903 z-score
Strand = TTAGATTTCGGGTTACGATTAGTGCTA; value = 2.32 z-score
Strand = TTAGGATTGCTTATCCTTTAGTGCTAG; value = 0.458 z-score
Strand = GACGATTTCGGGTTTTGAGACGTGCTA; value = 1.97 z-score
Strand = TTAGGACTGGACTCTGGGTTAGTGCTA; value = -0.838 z-score
Strand = TTAGATATCAGTTTCGCTTAGTGCTAG; value = 4.46 z-score
Strand = GACGGTATCGGACTGGGAACGTGCTAG; value = 1.52 z-score
Strand = TTAGGTATAGGGTTTCGGTTAGTGCTA; value = 2.74 z-score
Strand = TTTGGTATCGGGTTTCGGTTAGTGCTA; value = 3.98 z-score
Strand = TTAGGTATCGGACAGGGTTAGTGCTAG; value = 0.232 z-score

Study 3
Target: ABI1, truncated, D143A, DHFR fusion (Arabidopsis thaliana)
Method: DHFR PCA, deep sequencing
Matrix: yeast
Notes: methotrexate growth selection, single substitutions
Together with: (+)-ABA 0.032 µM
Baseline: wild-type fitted maximum
Reading: higher = stronger binding
Endpoint: relative binding score
Starting sequence: PYL1, truncated, DHFR fusion (Arabidopsis thaliana); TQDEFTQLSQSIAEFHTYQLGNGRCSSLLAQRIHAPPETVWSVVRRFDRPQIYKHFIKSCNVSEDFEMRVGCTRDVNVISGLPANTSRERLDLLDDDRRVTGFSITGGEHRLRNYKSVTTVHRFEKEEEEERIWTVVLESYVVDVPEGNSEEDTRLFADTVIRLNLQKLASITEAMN; partner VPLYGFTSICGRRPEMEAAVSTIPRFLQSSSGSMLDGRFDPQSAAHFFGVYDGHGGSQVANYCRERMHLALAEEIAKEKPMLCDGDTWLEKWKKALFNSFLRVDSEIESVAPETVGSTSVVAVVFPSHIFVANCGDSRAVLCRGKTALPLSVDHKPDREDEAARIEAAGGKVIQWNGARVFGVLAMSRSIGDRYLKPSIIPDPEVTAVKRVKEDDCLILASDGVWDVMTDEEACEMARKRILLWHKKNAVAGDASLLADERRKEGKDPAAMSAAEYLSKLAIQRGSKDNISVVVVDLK
Variant = R111Q; value = 5.61%
Variant = R98Q; value = 11%
Variant = V76L; value = 4.24%
Variant = M68H; value = 3.84%
Variant = L164I; value = 2.67%
Variant = L138W; value = 0.0415%
Variant = A84Q; value = 14.6%
Variant = C25L; value = 3.99%
Variant = L164W; value = 7.45%
Variant = T160W; value = -4.67%
Variant = V43T; value = 3.74%
Variant = S140H; value = 4.89%
Variant = R123F; value = -1.01%
Variant = T39I; value = 39.7%
Variant = E38G; value = 1.1%
Variant = E174V; value = -1.51%
Variant = K126L; value = 27.5%
Variant = E4Q; value = 14.3%
Variant = H110N; value = 67.3%
Variant = Y53E; value = 1.58%

Study 4
Target: Prothrombin, mature alpha-thrombin (F2, Homo sapiens, UniProt P00734)
Method: aptamer microarray, sandwich
Form: DNA with 2'F-ANA
Matrix: in vitro
Tested at: 200 nM
Notes: whole 15-mer aptamer, many near background
Together with: Cy3 exosite-II aptamer, 400 nM
Reading: higher = stronger binding
Endpoint: mean fluorescence intensity
Strand: GGTTGGTGTGGTTGG
Modification = 2'F-ANA at 3 5 8 9 10 11 12 15; value = 64.9 a.u.
Modification = 2'F-ANA at 3 9 10 12 14 15; value = 360 a.u.
Modification = 2'F-ANA at 3 4 5 7 9 11 14; value = 46.9 a.u.
Modification = 2'F-ANA at 2 6 9 11 12 15; value = 498 a.u.
Modification = 2'F-ANA at 1 2 5 6 7 9 10 14 15; value = 49.3 a.u.
Modification = 2'F-ANA at 6 7 8 11 12 13 14 15; value = 215 a.u.
Modification = 2'F-ANA at 2 4 5 10 11 12 13 14; value = 48.1 a.u.
Modification = 2'F-ANA at 4 5 7 8 9 10 11 12 15; value = 51.2 a.u.
Modification = 2'F-ANA at 1 4 5 6 9 10 12 14 15; value = 54.8 a.u.
Modification = 2'F-ANA at 1 2 3 4 10 11 15; value = 56.5 a.u.
Modification = 2'F-ANA at 2 5 6 11 13 15; value = 51.9 a.u.
Modification = 2'F-ANA at 2 4 8 11 13 14; value = 106 a.u.
Modification = 2'F-ANA at 2 3 6 8 11 12 13 15; value = 761 a.u.
Modification = 2'F-ANA at 1 3 4 6 9 14 15; value = 63.1 a.u.
Modification = 2'F-ANA at 1 4 5 7 10 12 13; value = 104 a.u.
Modification = 2'F-ANA at 1 4 5 8 12 15; value = 136 a.u.
Modification = 2'F-ANA at 1 2 3 4 6 7 8 9 11 12 13 14; value = 63.7 a.u.
Modification = 2'F-ANA at 3 5 7 9 10 11 15; value = 60.8 a.u.
Modification = 2'F-ANA at 1 6 9 10 12 13; value = 66.2 a.u.
Modification = 2'F-ANA at 1 2 5 7 9 12 13 15; value = 73.2 a.u.
Modification = 2'F-ANA at 3 4 5 6 9 10 13 14; value = 54.9 a.u.
Modification = 2'F-ANA at 1 3 8 11 13 15; value = 275 a.u.
Modification = 2'F-ANA at 4 7 8 9 10 12 14; value = 74.8 a.u.
Modification = 2'F-ANA at 1 4 6 7 8 9 10 11 14 15; value = 46.1 a.u.
Modification = 2'F-ANA at 2 3 6 10 12 13 14 15; value = 251 a.u.

Study 5
Target: Sal-like protein 4, full length isoform B (SALL4, Homo sapiens, UniProt Q9UJQ4-2, residues 1-616)
Method: universal PBM
Form: double-stranded DNA, one strand shown
Matrix: in vitro
Tested at: not given
Notes: 8-mer, flanks averaged, mean of replicates
Reading: higher = stronger binding
Endpoint: E-score
Strand = CATAGATG; value = 0.0102
Strand = GCCCAAGA; value = -0.206
Strand = CAGCTTCA; value = 0.0197
Strand = GTCTTCCA; value = -0.0464
Strand = AAGTATAG; value = 0.146
Strand = CTAAGCCA; value = -0.2
Strand = GGCCCCCC; value = -0.386
Strand = ACATCCCC; value = -0.137
Strand = ATGAGTTA; value = 0.165
Strand = CCCGCGCA; value = -0.259
Strand = AGCATAGC; value = -0.00432
Strand = GATCGGCC; value = -0.183
Strand = AAGCTAAC; value = 0.0166
Strand = AGCGCGCT; value = -0.274
Strand = ATCCCATA; value = 0.215
Strand = GATAGGGA; value = 0.0226
Strand = CATACCTA; value = 0.118
Strand = AGGTGATC; value = -0.00302
Strand = GGTACCTA; value = -0.0966
Strand = GCTGTGGA; value = -0.0779
Strand = CAGTTAGA; value = -0.0573
Strand = CTACTTGC; value = 0.083
Strand = CATCGGAC; value = -0.241
Strand = CCACAGAC; value = -0.12
Strand = GAGGTAAA; value = 0.0825
